{"data": "Experimental data gathered from unrelated publications", "note": "± marks the error that the study gave."}
{"SMILES": "COCC(C)N1CCn2cc(C(=O)NCc3ccc(F)cc3F)c(=O)c(O)c2C1=O (centres unmarked)", "target": "HIV-1 integrase wild type", "assay": "viral replication", "system": "HOS, HIV-1", "conditions": "single-round vector", "endpoint": "EC50", "result": "3.6 ± 0.1 nM"}
{"SMILES": "CCS(=O)(=O)[C@H]1[C@H](O)[C@@H](N)[C@@H](O[C@H]2[C@H](O[C@@H]3O[C@H](CO)[C@@H](O[C@H]4O[C@@H](CN)[C@@H](O)[C@H](O)[C@H]4N)[C@H]3O)[C@@H](O)[C@H](N)C[C@@H]2N)O[C@@H]1CO", "target": "bacterial hybrid ribosome, human mitochondrial A site", "assay": "cell-free translation", "how to read": "reference: mitochondrial hybrid over wild-type bacterial", "endpoint": "selectivity ratio", "result": 24}
{"SMILES": "CC[C@@H]1CN2CCc3c([nH]c4cccc(OC)c34)[C@@H]2C[C@@H]1/C(=C\\OC)C(=O)OC", "target": "anti-compound rabbit polyclonal IgG", "assay": "antibody binding, competitive indirect ELISA", "conditions": "antibody pre-incubated with standard", "endpoint": "IC50", "result": "3.13 mg/L"}
{"SMILES": "Nc1c2c([n+](CCCCCCCCCC[n+]3c4c(c(N)c5ccccc53)CCC4)c3ccccc13)CCC2", "target": "HIV-1 92UG024.2 Env MPER-TMD", "conditions": "concentration not given, residues 660-710", "endpoint": "NMR peak intensity decrease", "result": "40 to 60%"}
{"SMILES": "Cc1cc(Nc2cc(CN(C)C)cc(NC(=O)c3cccc(Nc4ccnc5ccccc45)c3)c2)nc(N)n1", "target": "human DNA polymerase theta", "assay": "inhibitor", "conditions": "50 µM", "endpoint": "inhibition", "result": "~50%"}
{"SMILES": "NC[C@@H]1O[C@H](O[C@H]2[C@@H](O)[C@H](O[C@@H]3[C@@H](O)[C@H](N)C[C@H](N)[C@H]3O[C@H]3O[C@H](CO)[C@@H](CCO)[C@H](O)[C@H]3N)O[C@@H]2CO)[C@H](N)[C@@H](O)[C@@H]1O", "target": "bacterial hybrid ribosome, human mitochondrial A site", "assay": "cell-free translation", "how to read": "reference: mitochondrial hybrid over wild-type bacterial", "endpoint": "selectivity ratio", "result": 1030}
{"SMILES": "CC(C)C[C@@H]1NC(=O)[C@H](Cc2ccc(O)cc2)NC(=O)[C@H](CC(N)=O)NC(=O)[C@H](CO)NC(=O)[C@@H](NC(=O)[C@@H]2CCCN2C(=O)[C@H](CC(N)=O)NC(=O)[C@@H](N)Cc2ccc(O)cc2)CSC1=O", "target": "AgrC-II", "assay": "GFP reporter", "system": "Staphylococcus epidermidis, agr group-II reporter", "conditions": "10 µM", "endpoint": "inhibition", "result": "~75%"}
{"SMILES": "CC[S+]([O-])C1C(CO)OC(OC2C(N)CC(N)C(O)C2OC2OC(CO)C(OC3OC(CN)C(O)C(O)C3N)C2O)C(N)C1O (mixture of isomers)", "target": "bacterial hybrid ribosome, human mitochondrial A site", "assay": "cell-free translation", "how to read": "reference: mitochondrial hybrid over wild-type bacterial", "endpoint": "selectivity ratio", "result": 236}
{"SMILES": "CC(C)C(N)C(=O)NC(C(=O)OCC(=O)C1(O)CCC2C3CCC4=CC(=O)C=CC4(C)C3C(O)CC21C)C(C)C (centres unmarked)", "target": "peptide transporters", "system": "MDCK-MDR1", "conditions": "100 µM, pH 7.4, 37 °C, added: [3H]-GlySar", "how to read": "reference: untreated", "endpoint": "[3H]-GlySar uptake", "result": "40%"}
{"SMILES": "C=CCn1nnc2c(NCc3ccc(C)s3)nc(N[C@H](CC)CO)nc21", "target": "Cav2.1 channel", "assay": "ion current, perforated patch clamp", "system": "HEK293 transfected with Cav2.1", "conditions": "50 µM, 100 ms steps from -100 to +20 mV", "how to read": "reference: maximal effect", "endpoint": "effect on tail current", "result": "25 to 45%"}
{"SMILES": "CCCO[C@H]1[C@H](O)[C@@H](N)[C@@H](O[C@H]2[C@H](O[C@@H]3O[C@H](CO)[C@@H](O[C@H]4O[C@@H](CN)[C@@H](O)[C@H](O)[C@H]4N)[C@H]3O)[C@@H](O)[C@H](N)C[C@@H]2N)O[C@@H]1CO", "target": "Mycobacterium smegmatis ribosome G1491C", "assay": "translation, cell-free translation", "how to read": "reference: G1491C mutant over wild type", "endpoint": "IC50 ratio", "result": 2000}
{"SMILES": "CC(C)C[C@H](NC(=O)[C@H](Cc1ccc(OP(=O)(O)O)cc1)NC(=O)[C@H](CCC(=O)O)NC(=O)[C@H](CC(=O)O)NC(=O)[C@H](C)NC(=O)[C@H](CC(=O)O)NC(=O)[C@@H](NC(=O)CCCCCNC(=O)CCCC[C@@H]1SC[C@@H]2NC(=O)N[C@@H]21)C(C)C)C(N)=O", "target": "human DUSP22", "endpoint": "dephosphorylation", "result": "6%"}
{"SMILES": "CCCS[C@H]1[C@H](O)[C@@H](N)[C@@H](O[C@H]2[C@H](O[C@@H]3O[C@H](CO)[C@@H](O[C@H]4O[C@@H](CN)[C@@H](O)[C@H](O)[C@H]4N)[C@H]3O)[C@@H](O)[C@H](N)C[C@@H]2N)O[C@@H]1CO", "target": "bacterial hybrid ribosome, human cytoplasmic A site", "assay": "cell-free translation", "how to read": "reference: cytoplasmic hybrid over wild-type bacterial", "endpoint": "selectivity ratio", "result": 1860}
{"SMILES": "O=C(N[C@@H](Cn1cncn1)c1ccc(F)cc1F)c1ccc(-c2nnc(-c3ccccc3)o2)cc1", "target": "Leishmania infantum CYP51", "conditions": "concentration not given", "endpoint": "remaining activity", "result": "68 ± 5.1%"}
{"SMILES": "CC(C)CS[C@H]1[C@H](O)[C@@H](N)[C@@H](O[C@H]2[C@H](O[C@@H]3O[C@H](CO)[C@@H](O[C@H]4O[C@@H](CN)[C@@H](O)[C@H](O)[C@H]4N)[C@H]3O)[C@@H](O)[C@H](N)C[C@@H]2N)O[C@@H]1CO", "target": "bacterial hybrid ribosome, human cytoplasmic A site", "assay": "cell-free translation", "how to read": "reference: cytoplasmic hybrid over wild-type bacterial", "endpoint": "selectivity ratio", "result": 1610}
{"SMILES": "CCCCCCCCC(=O)NCc1ccc(O)c(OC)c1", "target": "mouse mAb 1-G12", "assay": "antibody binding, indirect competitive ELISA", "conditions": "added: coating antigen 2-OVA", "endpoint": "IC50", "result": "> 4 mg/L"}
{"SMILES": "O=C(Oc1nsnc1N1CCOCC1)N1CCOCC1", "target": "trypsin", "assay": "enzyme activity, inhibitor, gel-based", "conditions": "up to 100 µM, added: denatured BSA substrate", "endpoint": "inhibition", "result": "no inhibition"}
{"SMILES": "Cc1ncsc1-c1ccc(CNC(=O)[C@@H]2C[C@@H](O)CN2C(=O)[C@@H](NC(=O)CN2CCN(C3CN(CCNC(=O)c4cc5c(cc4CS(C)(=O)=O)-c4cn(C)c(=O)c6[nH]cc(c46)CN5c4ncc(F)cc4F)C3)CC2)C(C)(C)C)cc1", "target": "Spodoptera frugiperda BRD3", "assay": "degrader, targeted MS", "system": "Spodoptera frugiperda L5 larvae", "conditions": "injection, 0.1 nmol/mg", "endpoint": "degradation", "result": "35%"}
{"SMILES": "CC(C)S[C@H]1[C@H](O)[C@@H](N)[C@@H](O[C@H]2[C@H](O[C@@H]3O[C@H](CO)[C@@H](O[C@H]4O[C@@H](CN)[C@@H](O)[C@H](O)[C@H]4N)[C@H]3O)[C@@H](O)[C@H](N)C[C@@H]2N)O[C@@H]1CO", "target": "bacterial hybrid ribosome, human mitochondrial A site", "assay": "cell-free translation", "how to read": "reference: mitochondrial hybrid over wild-type bacterial", "endpoint": "selectivity ratio", "result": 1210}
{"SMILES": "CC/C(=C\\CC[C@H](C)C[C@@H](C)CC[C@H](O)[C@H](C)C(=O)CC(O)[C@H](C)[C@@H](C)OC(=O)C[C@@H](O)C1=C(C)C(=O)OC1=O)C(O)CC(=O)O (some centres unmarked)", "target": "PP1 (human)", "assay": "enzyme activity", "system": "MCF7", "conditions": "20 µM, 4 h", "how to read": "reference: untreated", "endpoint": "inhibition", "result": "38%"}
{"SMILES": "CC(=O)N1c2ccc(-c3ccc(C(=O)NCCN4CC(N5CCN(CC(=O)N[C@H](C(=O)N6C[C@H](O)C[C@H]6C(=O)NCc6ccc(-c7scnc7C)cc6)C(C)(C)C)CC5)C4)cc3)cc2[C@H](Nc2ccc(Cl)cc2)C[C@@H]1C", "target": "Spodoptera frugiperda BRD3", "assay": "degrader, targeted MS", "system": "Spodoptera frugiperda L5 larvae", "conditions": "injection, 0.1 nmol/mg", "endpoint": "degradation", "result": "29%"}
{"SMILES": "COc1ccc(S(=O)(=O)n2nc(OC(=O)c3cccc(-c4ccccc4)c3)cc2N)cc1", "target": "dengue virus 2 protease S135A", "assay": "ESI-TOF MS", "conditions": "20 µM, 1 h, 25 °C", "how to read": "reference: DMSO control", "endpoint": "protein mass shift", "result": "0 Da"}
{"SMILES": "NC[C@@H]1O[C@H](O[C@H]2[C@@H](O)[C@H](O[C@@H]3[C@@H](O)[C@H](N)C[C@H](N)[C@H]3O[C@H]3O[C@H](CO)[C@@H](SCCF)[C@H](O)[C@H]3N)O[C@@H]2CO)[C@H](N)[C@@H](O)[C@@H]1O", "target": "bacterial hybrid ribosome, human cytoplasmic A site", "assay": "cell-free translation", "how to read": "reference: cytoplasmic hybrid over wild-type bacterial", "endpoint": "selectivity ratio", "result": 1150}
{"SMILES": "CC(C)C[C@H](NC(=O)[C@H](C)NC(=O)[C@H](CCCCN)NC(=O)[C@H](CCCNC(=N)N)NC(=O)[C@H](CCC(=O)O)NC(=O)[C@H](C)NC(=O)[C@H](CCC(=O)O)NC(=O)[C@H](CCCCN)NC(=O)[C@H](CCCCN)NC(=O)[C@H](CC(=O)O)NC(=O)[C@H](Cc1c[nH]cn1)NC(=O)[C@H](CC(=O)O)NC(=O)[C@H](C)NC(=O)[C@H](C)NC(=O)[C@H](CCC(=O)O)NC(=O)[C@H](CO)NC(=O)[C@H](CCCCN)NC(=O)[C@H](CC(C)C)NC(=O)[C@H](CCCNC(=N)N)NC(=O)[C@H](CCC(=O)O)NC(=O)[C@H](CC(C)C)NC(=O)[C@H](CCC(=O)O)NC(=O)[C@H](C)NC(=O)[C@H](CCC(=O)O)NC(=O)[C@H](CCC(=O)O)NC(=O)[C@H](Cc1c[nH]cn1)NC(=O)[C@H](CCCNC(=N)N)NC(=O)[C@H](CCC(=O)O)NC(=O)[C@H](CC(N)=O)NC(=O)[C@H](CCCCN)NC(=O)[C@H](CC(C)C)NC(=O)[C@H](CCCNC(=N)N)NC(=O)[C@H](CCC(N)=O)NC(=O)[C@H](CC(C)C)NC(=O)[C@H](CCC(=O)O)NC(=O)[C@H](C)NC(=O)[C@H](CC(=O)O)NC(=O)[C@H](C)NC(=O)[C@@H](NC(=O)[C@H](CC(C)C)NC(=O)[C@H](CCCCN)NC(=O)[C@H](CCC(=O)O)NC(=O)[C@@H](NC(=O)[C@H](CO)NC(=O)CN)C(C)C)[C@@H](C)O)C(=O)N[C@@H](CCC(=O)O)C(=O)N[C@@H](CC(=O)O)C(=O)N[C@@H](CCCCN)C(=O)N[C@@H](CC(C)C)C(=O)N[C@@H](C)C(=O)N[C@@H](CC(=O)O)C(=O)N[C@@H](Cc1ccc(O)cc1)C(=O)O", "target": "human K2 plasminogen complex", "assay": "analytical ultracentrifugation", "conditions": "pH 7.4, 25 °C", "endpoint": "molecular mass", "result": "16400 ± 1000 Da"}
{"SMILES": "Cc1cc(C(=O)NCCc2ccc(-c3ccccc3)cc2)cc(C)c1C[C@H](N)C(=O)N1Cc2ccccc2C[C@H]1C(=O)O", "target": "mu opioid receptor, guinea pig", "assay": "antagonist", "system": "guinea pig ileum", "endpoint": "Ke", "result": "2910 ± 570 nM"}
{"SMILES": "O=C(O)COc1ccc(Cl)cc1", "target": "Torpedo CLC-0 T471S C212S", "assay": "chloride current, inhibitor, patch clamp", "conditions": "-140 mV", "how to read": "reference: wild type", "endpoint": "affinity increase", "result": "~10 fold"}
